Experimental data collected from several papers.
Numbered parts are unrelated; each lists some results of a single study. Positions count from the first letter of the parent shown.
UniProt Q8N2K1, sequence (whole entry, looked up): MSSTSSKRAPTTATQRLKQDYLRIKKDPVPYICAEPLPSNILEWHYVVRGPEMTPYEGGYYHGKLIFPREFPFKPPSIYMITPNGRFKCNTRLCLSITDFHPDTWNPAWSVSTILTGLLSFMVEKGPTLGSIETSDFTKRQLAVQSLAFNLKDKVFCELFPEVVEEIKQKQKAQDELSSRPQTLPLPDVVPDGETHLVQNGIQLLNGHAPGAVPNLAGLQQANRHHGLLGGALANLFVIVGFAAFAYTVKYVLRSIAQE
UniProt Q9Y385, sequence (whole entry, looked up): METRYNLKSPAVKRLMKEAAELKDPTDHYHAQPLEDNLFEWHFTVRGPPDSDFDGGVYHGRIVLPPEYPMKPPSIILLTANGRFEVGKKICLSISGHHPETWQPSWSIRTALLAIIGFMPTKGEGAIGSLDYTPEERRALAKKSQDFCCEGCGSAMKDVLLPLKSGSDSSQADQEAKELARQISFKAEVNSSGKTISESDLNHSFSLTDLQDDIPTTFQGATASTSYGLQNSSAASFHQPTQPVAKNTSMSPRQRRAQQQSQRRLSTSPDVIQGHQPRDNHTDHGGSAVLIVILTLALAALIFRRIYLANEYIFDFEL
UniProt O00762, sequence (whole entry, looked up): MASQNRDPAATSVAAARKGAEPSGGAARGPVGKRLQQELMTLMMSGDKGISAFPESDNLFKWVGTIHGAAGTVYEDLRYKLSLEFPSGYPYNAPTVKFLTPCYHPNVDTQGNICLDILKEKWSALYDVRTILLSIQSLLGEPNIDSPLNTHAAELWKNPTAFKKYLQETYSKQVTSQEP
UniProt P51668, sequence (whole entry, looked up): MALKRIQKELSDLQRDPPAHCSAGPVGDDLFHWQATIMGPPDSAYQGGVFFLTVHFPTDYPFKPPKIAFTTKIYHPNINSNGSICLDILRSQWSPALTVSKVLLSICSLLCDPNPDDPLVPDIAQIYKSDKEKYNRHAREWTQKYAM
UniProt Q9C0C9, sequence (whole entry, looked up): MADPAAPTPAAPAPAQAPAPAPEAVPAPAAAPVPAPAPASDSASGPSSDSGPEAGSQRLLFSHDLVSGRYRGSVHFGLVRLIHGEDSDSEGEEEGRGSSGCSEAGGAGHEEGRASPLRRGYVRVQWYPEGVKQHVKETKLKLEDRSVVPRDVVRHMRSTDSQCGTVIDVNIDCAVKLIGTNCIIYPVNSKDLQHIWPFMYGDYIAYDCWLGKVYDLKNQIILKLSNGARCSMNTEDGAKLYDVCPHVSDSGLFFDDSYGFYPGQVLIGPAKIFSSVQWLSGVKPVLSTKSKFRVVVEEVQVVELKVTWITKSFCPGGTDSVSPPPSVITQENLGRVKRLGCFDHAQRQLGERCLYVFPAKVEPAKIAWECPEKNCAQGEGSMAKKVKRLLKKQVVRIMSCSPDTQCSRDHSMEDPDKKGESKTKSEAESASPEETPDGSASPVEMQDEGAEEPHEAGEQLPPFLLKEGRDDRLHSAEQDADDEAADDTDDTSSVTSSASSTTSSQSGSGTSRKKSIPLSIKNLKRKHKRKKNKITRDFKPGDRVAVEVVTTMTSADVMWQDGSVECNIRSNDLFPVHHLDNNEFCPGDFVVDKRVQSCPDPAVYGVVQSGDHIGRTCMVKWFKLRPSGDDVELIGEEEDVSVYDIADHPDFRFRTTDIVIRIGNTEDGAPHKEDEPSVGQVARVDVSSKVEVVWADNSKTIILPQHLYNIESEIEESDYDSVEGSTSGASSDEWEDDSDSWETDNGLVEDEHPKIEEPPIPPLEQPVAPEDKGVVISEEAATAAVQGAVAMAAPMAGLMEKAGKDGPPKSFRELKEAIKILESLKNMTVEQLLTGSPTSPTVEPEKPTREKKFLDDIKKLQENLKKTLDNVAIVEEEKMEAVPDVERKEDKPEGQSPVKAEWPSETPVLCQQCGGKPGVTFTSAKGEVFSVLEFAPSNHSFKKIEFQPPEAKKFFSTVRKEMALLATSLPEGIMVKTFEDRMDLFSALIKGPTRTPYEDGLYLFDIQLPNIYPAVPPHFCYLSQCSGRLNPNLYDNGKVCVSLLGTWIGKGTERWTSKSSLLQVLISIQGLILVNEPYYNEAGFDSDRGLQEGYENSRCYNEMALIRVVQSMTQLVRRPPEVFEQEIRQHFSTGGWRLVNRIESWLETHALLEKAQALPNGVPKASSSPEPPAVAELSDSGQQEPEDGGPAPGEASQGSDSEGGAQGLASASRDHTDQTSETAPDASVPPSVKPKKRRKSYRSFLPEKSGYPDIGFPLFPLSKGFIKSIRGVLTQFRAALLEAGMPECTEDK
UniProt Q969T4, sequence (whole entry, looked up): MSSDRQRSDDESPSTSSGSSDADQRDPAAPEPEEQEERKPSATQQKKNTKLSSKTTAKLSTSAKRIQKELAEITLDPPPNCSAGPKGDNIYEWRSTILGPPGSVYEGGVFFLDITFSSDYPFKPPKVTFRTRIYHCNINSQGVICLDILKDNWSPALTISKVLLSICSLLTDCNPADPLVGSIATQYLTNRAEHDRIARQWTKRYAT
UniProt Q9NPD8, sequence (whole entry, looked up): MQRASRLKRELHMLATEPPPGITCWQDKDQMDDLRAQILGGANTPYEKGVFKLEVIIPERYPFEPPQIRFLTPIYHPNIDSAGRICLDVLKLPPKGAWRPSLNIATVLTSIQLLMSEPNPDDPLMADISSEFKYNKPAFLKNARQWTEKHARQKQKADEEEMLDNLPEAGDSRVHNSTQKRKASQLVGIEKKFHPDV

Study 1
Target: Ras GTPase-activating protein-binding protein 1, full length (G3BP1, Homo sapiens, UniProt Q13283)
UniProt Q13283, sequence (whole entry, looked up): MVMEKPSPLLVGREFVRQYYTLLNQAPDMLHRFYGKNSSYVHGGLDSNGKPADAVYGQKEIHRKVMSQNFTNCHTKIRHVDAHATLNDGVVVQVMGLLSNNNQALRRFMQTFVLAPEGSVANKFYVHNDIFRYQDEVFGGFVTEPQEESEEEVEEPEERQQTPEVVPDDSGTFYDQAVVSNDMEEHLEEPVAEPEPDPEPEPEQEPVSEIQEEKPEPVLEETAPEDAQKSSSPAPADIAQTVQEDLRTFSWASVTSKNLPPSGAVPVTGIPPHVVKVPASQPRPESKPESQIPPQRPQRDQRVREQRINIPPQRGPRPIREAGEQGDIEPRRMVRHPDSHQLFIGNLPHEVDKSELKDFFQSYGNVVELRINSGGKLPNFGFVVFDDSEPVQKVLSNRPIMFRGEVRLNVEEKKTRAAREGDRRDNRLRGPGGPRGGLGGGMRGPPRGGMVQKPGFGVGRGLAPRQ
Technique: RNA Bind-n-Seq
Molecule type: RNA
Matrix: in vitro
Tested at: 200 nM
Notes: whole 134-nt RNA, ends assumed
With: 150 mM LiCl
Reference: input library
Direction: higher = stronger binding
Measurement: log2 enrichment
Library: 7-deaza-guanosine replaces G
All sequences stand within: GGGAGUUCUACAGUCCGACGAUC … UGGAAUUCUCGGGUGUCAAGG
Sequence = CACAGACAACACGCACCCACACAGACACAGCGGGAAGGGGUUGGGAUGGGGACAGGGUGCACAGCAGGGCGGGGUAGGACCCCAGCCCCU; value = -0.474
Sequence = CAAGUCCUGUGCUACACAUCGUAUGUACCGAAUCGGUUUUGGGGUUUUGGUUUUGGAAAGUAUUAUGUUACGCCGUUCGGAUCUGCACUU; value = -1.35
Sequence = UGGGAGGUGGAUUUUGUUUAUUUUUUUAGCUCAAUUCCAGGGGUGGGAAUUUUUUUUUAAUAUGUGUCAUGAAUAAAGUUGUUUUUGAAA; value = 0.234
Sequence = UGGGAGGUGGAUUUUGUUUAUUUUUUUAGCUCAUUUCCAGGGGUGGGAAUUUUUUUUUAAUAUGUGUCAUGAAUAAAGUUGUUUCUGAAA; value = -0.421
Sequence = GUCCUGUGCUACACAUCGUAUGUACCGAAUCGGGUGGGUUUUUUUGGGUUUUUUUGGGAAAGUAUUAUGUUACGCCGUUCGGAUCUGCAC; value = 0.26
Sequence = UUACUAGAAAAGGCAGAAGCCCGUGAACGUGAAAGAGAAAAAGAAGAGGCUCGGAAGAUGAAACGAAAAGAAUCUGCAUUUAAGAGUAUG; value = -2.15
Sequence = UGGCCCUGGUGGCAUGUGGGGAGGAAGAGGUGGCCUCAUGGAUCGUGGUGGUCCCGGUGGAAUGUUCAGAGGUGGCCGUGGUGGAGACAG; value = 0.5
Sequence = AUUCUUCAUUGAGGGUGAGGAUCUCCCAAUGGGAGACUGCUCUGAAAAGAGCAUGUGCUUUUUGAAUUAGAUAACCUACUAUAAUCAUGG; value = -1.4
Sequence = CAAGUCCUGUGCUACACAUCGUAUGUACCGAAUCGGGAAAGGGAAAGGGGAAAGGAAAGUAUUAUGUUACGCCGUUCGGAUCUGCACUUC; value = -0.647
Sequence = GCAGGAAGUAAAAACAAAUGGAAAUGCUCCGGAUAGUGGCAGGGGUGGGGGUUGCUAAGGAAAGGGUGGGAUGGGAGUGGGUAAAGAGUU; value = 0.12
Sequence = UCCUGUGCUACACAUCGUAUGUACCGAAUCGGCCCCCCGGGCCCCCCGGGCCCCCCGGGGAAAGUAUUAUGUUACGCCGUUCGGAUCUGC; value = -1.57

Study 2
Target: CCNA2, cyclin fold, Cln2 fusion (human)
Technique: yeast growth competition, sequencing
Matrix: yeast
Notes: weak parent motif
Reference: not given
Direction: higher = stronger binding
Measurement: normalised enrichment score
Parent: CDC42EP1 docking peptide (human); SLVVGKLSFDSSP
Variant = V3A; value = 0.293
Variant = S1A; value = 0.241
Variant = V4A; value = 0.121
Variant = K6A; value = -0.325
Variant = D10A; value = 0.4
Variant = S11A; value = -0.0741
Variant = G5A; value = 0.172

Study 3
Target: ABI1, truncated, D143A, DHFR fusion (Arabidopsis thaliana)
Technique: DHFR PCA, deep sequencing
Matrix: yeast
Notes: methotrexate growth selection, single substitutions
With: (+)-ABA 58 µM
Reference: wild-type fitted maximum
Direction: higher = stronger binding
Measurement: relative binding score
Parent: PYL1, truncated, DHFR fusion (Arabidopsis thaliana); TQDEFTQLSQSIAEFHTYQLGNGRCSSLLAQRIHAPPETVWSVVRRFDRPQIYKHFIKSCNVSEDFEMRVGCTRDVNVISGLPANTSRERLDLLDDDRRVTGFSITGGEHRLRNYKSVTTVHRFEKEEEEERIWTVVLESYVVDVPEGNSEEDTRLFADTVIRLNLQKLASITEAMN; partner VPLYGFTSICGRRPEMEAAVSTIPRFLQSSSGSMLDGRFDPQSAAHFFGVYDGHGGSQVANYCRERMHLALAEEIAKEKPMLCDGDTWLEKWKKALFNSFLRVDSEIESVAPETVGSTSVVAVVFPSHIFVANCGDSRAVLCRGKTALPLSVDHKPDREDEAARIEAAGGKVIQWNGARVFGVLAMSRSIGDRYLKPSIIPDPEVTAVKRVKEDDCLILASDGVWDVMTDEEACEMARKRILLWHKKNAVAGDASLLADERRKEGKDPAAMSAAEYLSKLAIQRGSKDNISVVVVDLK
Variant = E4V; value = 92.6%
Variant = A13F; value = 74.6%
Variant = P37E; value = 62.1%
Variant = V100T; value = 60.1%
Variant = V70E; value = 74.1%
Variant = R113Q; value = 102%
Variant = Q51R; value = 27.9%
Variant = D75K; value = 85.9%
Variant = V137D; value = 0.846%
Variant = N165Q; value = 2.61%
Variant = H110Q; value = 21.8%
Variant = T119H; value = -5.24%
Variant = R74C; value = -3.42%
Variant = R69K; value = 88.4%
Variant = V100F; value = 27.2%
Variant = K54E; value = 0.494%
Variant = W134R; value = 70.8%
Variant = V43Y; value = 69.7%
Variant = P37W; value = 36%
Variant = K168R; value = 82%
Variant = N165K; value = 18.8%
Variant = F157C; value = 5.87%
Variant = E130C; value = 90.6%
Variant = G148E; value = 67.9%

Study 4
Target: Interferon regulatory factor 3, full length, phosphomimetic (IRF3, Homo sapiens, UniProt Q14653, residues 1-427, S386D/S396D/S398D/S402D/T404D/S405D)
UniProt Q14653, sequence (whole entry, unmodified, looked up): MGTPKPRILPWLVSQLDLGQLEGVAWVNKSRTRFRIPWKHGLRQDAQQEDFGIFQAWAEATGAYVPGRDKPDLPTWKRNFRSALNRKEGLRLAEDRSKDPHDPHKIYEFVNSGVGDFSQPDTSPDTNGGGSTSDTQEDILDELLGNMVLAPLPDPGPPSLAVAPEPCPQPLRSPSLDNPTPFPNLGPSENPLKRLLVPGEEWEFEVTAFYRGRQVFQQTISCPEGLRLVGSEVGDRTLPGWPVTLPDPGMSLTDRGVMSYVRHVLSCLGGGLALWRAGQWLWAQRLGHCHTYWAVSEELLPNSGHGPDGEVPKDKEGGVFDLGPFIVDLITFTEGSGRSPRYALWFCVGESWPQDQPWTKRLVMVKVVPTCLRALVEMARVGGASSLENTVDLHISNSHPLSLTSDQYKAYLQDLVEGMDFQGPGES
Technique: protein-binding microarray
Molecule type: double-stranded DNA, one strand shown
Matrix: in vitro
Tested at: 2540 nM top
Notes: 60-bp whole probe
With: salmon DNA 0.4 mg/ml
Reference: random background probes
Direction: higher = stronger binding
Measurement: fitted relative affinity
All sequences stand within: GCCTAGCAC … GTCTTGATTCGCTTGACGCTGCTG
Sequence = GACGGACTGCGTCTCCTGACGTGCTAG; value = -0.541 z-score
Sequence = GACGGTCTCGGCCTCGGGACGTGCTAG; value = -0.393 z-score
Sequence = AGTATGTTCCTTATTTAAGAGTGCTAG; value = 2.74 z-score
Sequence = TTAGGTCTCCTACTACTTTAGTGCTAG; value = 1.34 z-score
Sequence = TCAGCAAAAATGATTGGACTGTGCTAG; value = -0.598 z-score
Sequence = ACCCTTGAGTGGTCCAGAGTGTGCTAG; value = -0.0257 z-score
Sequence = TTAGGTTTCGGACTGGGTTAGTGCTAG; value = 4.22 z-score
Sequence = TAAGAACTGAGACTGGATTAGTGCTAG; value = -0.487 z-score
Sequence = AAGCTTCTGGTCTTCTGGACGTGCTAG; value = -0.448 z-score
Sequence = GACGAACTGGGGAGTGGAGACGTGCTA; value = -0.542 z-score
Sequence = TCAACTTTATGTAGGAAACTGTGCTAG; value = 0.242 z-score
Sequence = TCATTTCTCTCTGTGACACTGTGCTAG; value = 2.49 z-score
Sequence = TTAGGTTTCCTTCTCCTATAGTGCTAG; value = 10.5 z-score
Sequence = GACGATTTCGGTTTTCGAGACGTGCTA; value = 5.7 z-score
Sequence = TTTGCTTTCCTTTGCTTTCTGTGCTAG; value = 3.59 z-score
Sequence = CCCTGTTTCCATCTCTCAAAGTGCTAG; value = 7.72 z-score
Sequence = GCTTTTTCCCCCCTCACGCAGTGCTAG; value = 1.96 z-score
Sequence = GACGGACTGGGGTATCGGTACGTGCTA; value = 0.151 z-score
Sequence = AATGTTTTGTTTTTCATTATGTGCTAG; value = 3.58 z-score
Sequence = TCATATTAAAATTTCATACTGTGCTAG; value = 1.32 z-score
Sequence = GGCGGTTTCCTACTGCTGACGTGCTAG; value = 5.35 z-score
Sequence = TCAGTTTTGTGTGTGTGACTGTGCTAG; value = 0.668 z-score

Study 5
Target: CEBPE, bZIP domain (human)
Technique: DHFR protein complementation
Matrix: yeast
Notes: single substitutions, most at no-binding floor
Reference: wild-type JUN-FOS pair
Direction: higher = stronger binding
Measurement: binding fitness
Parent: JUN, bZIP domain (human); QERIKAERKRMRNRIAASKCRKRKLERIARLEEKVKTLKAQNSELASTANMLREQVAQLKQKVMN; partner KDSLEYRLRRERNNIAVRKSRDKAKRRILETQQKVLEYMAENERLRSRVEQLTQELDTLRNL
Variant = A49I; value = -1.09 natural log
Variant = A49F; value = -1.35 natural log
Variant = E44T; value = -1.3 natural log
Variant = L59W; value = -0.973 natural log
Variant = L38A; value = -1.51 natural log
Variant = Q55N; value = -1.47 natural log
Variant = N42G; value = -1.44 natural log
Variant = A49T; value = -1.43 natural log
Variant = N42M; value = -1.47 natural log
Variant = T48G; value = -1.47 natural log
Variant = T48W; value = -1.33 natural log
Variant = S43K; value = -0.934 natural log
Variant = T37D; value = -1.02 natural log
Variant = S43N; value = -1.05 natural log
Variant = I28K; value = -1.29 natural log
Variant = E32Y; value = -1.3 natural log
Variant = A57N; value = -0.984 natural log
Variant = E54S; value = -1.25 natural log
Variant = I28R; value = -1.24 natural log
Variant = N42C; value = -1.41 natural log
Variant = T37G; value = -1.27 natural log
Variant = R30F; value = -1.18 natural log

Study 6
Target: Histone acetyltransferase KAT6A, winged helix 2, GST fusion (KAT6A, Homo sapiens, UniProt Q92794, residues 85-181)
Technique: protein binding microarray
Molecule type: double-stranded DNA, one strand shown
Matrix: in vitro
Tested at: not given
Notes: 8-mer, flanks averaged, mean of 2 arrays, mostly near background
Reference: not given
Direction: higher = stronger binding
Measurement: E-score
Construct (chain): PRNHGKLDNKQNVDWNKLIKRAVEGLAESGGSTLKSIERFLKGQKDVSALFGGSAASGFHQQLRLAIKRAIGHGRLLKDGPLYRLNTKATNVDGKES
Sequence = ACCGCACG; value = 0.148
Sequence = GTCCGTAA; value = 0.0507
Sequence = GTTCATCA; value = 0.0183
Sequence = ACATTCAA; value = -0.121
Sequence = GGATGTTA; value = -0.0365
Sequence = TACAACCA; value = 0.0181
Sequence = CTCGTCTC; value = -0.0222
Sequence = AGTTCATC; value = -0.137
Sequence = AGACTCCT; value = -0.147
Sequence = GCAGGGCA; value = 0.126
Sequence = AGCCCGTG; value = 0.091
Sequence = GACACTAA; value = 0.0616
Sequence = GGACTGTA; value = -0.259
Sequence = TGGCAGAA; value = 0.186
Sequence = GAACCTGA; value = -0.195
Sequence = GGTTACAA; value = 0.0932
Sequence = ACTCCTTC; value = -0.223
Sequence = ACCCCGGA; value = 0.111
Sequence = AATTTTTG; value = -0.0767
Sequence = TCATACCA; value = 0.0591
Sequence = CCCGGATA; value = -0.00885

Study 7
Substance: RNF26 RING domain (UniProt Q9BY78)
UniProt Q9BY78, sequence (whole entry, looked up): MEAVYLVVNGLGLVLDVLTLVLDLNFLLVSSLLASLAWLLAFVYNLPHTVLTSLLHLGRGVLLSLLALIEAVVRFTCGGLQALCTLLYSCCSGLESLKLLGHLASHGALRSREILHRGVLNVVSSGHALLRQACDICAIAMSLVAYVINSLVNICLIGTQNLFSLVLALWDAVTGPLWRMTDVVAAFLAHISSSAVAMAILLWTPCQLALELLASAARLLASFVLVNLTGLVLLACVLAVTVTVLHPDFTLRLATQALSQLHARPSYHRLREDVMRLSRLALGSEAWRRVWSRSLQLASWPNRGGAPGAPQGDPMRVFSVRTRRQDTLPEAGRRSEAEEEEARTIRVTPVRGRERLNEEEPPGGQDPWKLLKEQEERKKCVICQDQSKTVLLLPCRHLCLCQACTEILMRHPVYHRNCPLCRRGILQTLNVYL
Technique: yeast two-hybrid
Matrix: yeast
Notes: mostly zero background
Reference: not given
Direction: higher = stronger interaction
Measurement: lacZ reporter activity
target = UBE2T UBC core domain (UniProt Q9NPD8); value = 0
target = UBE2I UBC core domain (UniProt P63279); value = 0
target = UBE2C UBC core domain (UniProt O00762); value = 0
target = UBE2E3 UBC core domain (UniProt Q969T4); value = 0
target = UBE2J1 UBC core domain (UniProt Q9Y385); value = 0
target = UBE2O UBC core domain (UniProt Q9C0C9); value = 0
target = UBE2D1 UBC core domain (UniProt P51668); value = 0
target = UBE2J2 UBC core domain (UniProt Q8N2K1); value = 0
target = BIRC6 UBC core domain (UniProt Q9NR09); value = 0

Some of these lines once more (study 2):
Variant = V3A; value = 0.293
Variant = S1A; value = 0.241
Variant = V4A; value = 0.121
Variant = K6A; value = -0.325
Variant = D10A; value = 0.4
Variant = S11A; value = -0.0741
Variant = G5A; value = 0.172
